Experimental data from different studies.
Protocols differ between the studies behind these lines. ± marks the error that the study gave.

C=CC(=O)NC1CCN(c2ncc3ncnc(Nc4ccc(Oc5ccc6c(c5)ncn6C)c(C)c4)c3n2)CC1  AUC(0-inf) (human, male, plasma; oral, 240 mg single dose, fed, geometric mean): 60 µM·h
CC(=O)c1cc(C(=O)N[C@@H](C)Cn2ccc(-c3ccc(C#N)c(Cl)c3)n2)[nH]n1  AUC(0-inf) (healthy male human, plasma; intravenous infusion, 100 µg 14C-labelled, 15 min infusion, microtracer, geometric mean): 20400 h·pg eq/mL
C=CC(=O)N(C)CCOc1c(N)ncnc1-c1cc(F)cc(NC(=O)c2ccc(C3CC3)cc2F)c1C  AUC(0-inf) (human, whole blood; oral, 400 mg, single ascending dose): 1.08 ± 0.935 µg·h/mL
Cc1[nH]c(/C=C2\C(=O)Nc3ccc(F)cc32)c(C)c1C(=O)N[C@H]1CCN(C(=O)N(C)C)C1  AUC(0-inf) (human patients, plasma; oral, 100 mg single dose, with: everolimus 5 mg): 4.63 ± 2.46 µg·h/mL
N[C@]1(C(=O)O)[C@H]2[C@@H](C[C@@H]1F)[C@@H]2C(=O)O  AUC(0-inf) (human, both sexes, plasma; oral, 10 mg, fed, single dose): 0.383 µg·h/mL
CC(C)C[C@H](NC(=O)[C@H](CC(C)C)NC(=O)[C@H](Cc1c[nH]c2ccccc12)NC(=O)[C@H](CCC(=O)O)NC(=O)[C@@H](NC(=O)[C@H](Cc1ccccc1)NC(=O)[C@H](CCC(=O)O)NC(=O)[C@H](CCCCNC(=O)COCCOCCNC(=O)COCCOCCNC(=O)CC[C@H](NC(=O)CCCCCCCCCCCCCCCCCCC(=O)O)C(=O)O)NC(=O)[C@H](C)NC(=O)[C@H](CCCCN)NC(=O)[C@H](CCCCN)NC(=O)[C@H](CCC(=O)O)NC(=O)[C@H](CC(=O)O)NC(=O)[C@H](CC(C)C)NC(=O)[C@H](Cc1ccc(O)cc1)NC(=O)[C@H](CCCCN)NC(=O)[C@H](CO)NC(=O)[C@H](Cc1ccc(O)cc1)NC(=O)[C@H](CC(=O)O)NC(=O)[C@H](CO)NC(=O)[C@@H](NC(=O)[C@H](Cc1ccccc1)NC(=O)[C@@H](NC(=O)CNC(=O)[C@H](CCC(N)=O)NC(=O)C(C)(C)NC(=O)[C@@H](N)Cc1c[nH]cn1)[C@@H](C)O)[C@@H](C)O)C(C)C)C(=O)N[C@@H](CCC(=O)O)C(=O)NCC(=O)NCC(=O)N1CCC[C@H]1C(=O)N[C@@H](CO)C(=O)N[C@@H](CO)C(=O)NCC(N)=O  AUC(0-inf) (human, plasma; subcutaneous, 16 mg once weekly, week 20, geometric mean): 1570 µg·h/mL
Cn1nnc2c(C(N)=O)ncn2c1=O  AUC(0-inf) (human patients, plasma; oral, 20 mg/m2, day 5, dose level DL2, median, with: talazoparib 400 µg/m2): 3.17 µg·h/mL
CCNCCCNC/C=C\CNCCCNCC  AUC(0-inf) (LC-MS/MS; human cancer patients, plasma; intravenous infusion 60 min, 100 mg, median, cycle 1): 0.304 µg·h/mL
C#Cc1cccc(Nc2ncnc3cc(OCCOC)c(OCCOC)cc23)c1  AUC(0-inf) (human, plasma; oral, 100 mg, day 1): 37.2 ± 14.6 µM·h
C#C[C@]1(CO)O[C@@H](n2cnc3c(N)nc(F)nc32)C[C@@H]1O  AUC(0-inf) (human, plasma; oral, 200 mg, single dose, geometric mean): 25 µM·h
NC(CO)(CO)CCc1ccc(Sc2cccc(OCc3ccccc3)c2)cc1Cl  AUC(0-inf) (human, whole blood; oral, 3 mg, given alone): 0.145 µg·h/mL
N#CN1C[C@H](n2nc(-c3ccc(Oc4ccc(Cl)cn4)cc3)c(C(N)=O)c2N)CCC12CC2  AUC(0-inf) (human, fasted, plasma; oral, 600 mg): 22 ± 7.83 µg·h/mL
CNC(=O)c1ccc(-c2cnc3ncc(Cc4ccc5ncccc5c4)n3n2)cc1F  AUC(0-inf) (human, mild NCI classification, plasma; oral, 200 mg, adjusted geometric mean): 6.64 µg·h/mL
C[C@@H](N)c1cc(Cl)ccc1Cn1c(=S)[nH]c(=O)c2[nH]ccc21  AUC(0-inf) (human, both sexes, severe renal impairment, plasma; oral, 2.5 mg single dose, geometric mean): 0.69 µM·h
C[C@H](Oc1ccc(Br)cc1-c1ccon1)C(=O)O  AUC(0-inf) (healthy male humans, plasma; oral, 600 mg once daily, day 1): 148 µg·h/mL
C=CC(=O)NC1CCN(c2ncc3ncnc(Nc4ccc(Oc5ccc6c(c5)ncn6C)c(C)c4)c3n2)CC1  AUC(0-inf) (human male, plasma; oral, 60 mg single dose, geometric mean): 12.3 µM·h
CN(CC#N)C(=O)C[C@H](Nc1nc2ccccc2[nH]1)c1cccc(C(F)(F)F)c1  AUC(0-inf) (human; intravenous infusion, 1 mg/kg, 5 mg/mL formulation): 6.83 ± 1.95 µg·h/mL
Cc1cc(C)c(CNC(=O)c2cc(Cl)c3c(c2C)O[C@@](C)([C@H]2CC[C@H](N(C)C)CC2)O3)c(=O)[nH]1  AUC(0-inf) (mean; healthy male humans, plasma; oral, 25 mg, day 12, with: fluconazole): 1.11 µg·h/mL
Cc1cc(Nc2cc3ncccc3c(N[C@@H]3C[C@H]4CC[C@@H](C3)N4CCC#N)n2)n[nH]1  AUC(0-inf) (human, plasma; 10 mg single dose, mean): 0.00087 µg·h/mL
Cc1ccc(C(=O)N(CCCN)C(c2nc3snc(C)c3c(=O)n2Cc2ccccc2)C(C)C)cc1 (centres unmarked)  AUC(0-inf) (human patients, plasma; intravenous, 7 mg/day, day 3 after induction, geometric mean): 0.75 µg·h/mL
[H]/N=C(/N)c1ccc(NCc2nc3cc(C(=O)N(CCC(=O)O)c4ccccn4)ccc3n2C)cc1  AUC(0-inf) (healthy human subjects, plasma; oral, 150 mg dabigatran etexilate, geometric mean, with: fruquintinib 5 mg): 0.924 µg·h/mL
C[C@@H](Oc1ccc(S(C)(=O)=O)cc1C(=O)N1C[C@@H]2C[C@]2(c2cc(C(F)(F)F)on2)C1)C(F)(F)F  AUC(0-inf) (healthy young humans, plasma; oral, 10 mg single dose): 3.8 µM·h
CN1C(=O)[C@@H](NC(=O)c2nnc(Cc3ccccc3)[nH]2)COc2cccnc21  AUC(0-inf) (healthy human, fasted, plasma; oral, 100 mg single dose, geometric mean): 17 µg·h/mL
CC(=O)O[C@H]1C(=O)[C@@]2(C)[C@H]([C@H](OC(=O)c3ccccc3)[C@]3(O)C[C@H](OC(=O)[C@H](O)[C@@H](NC(=O)c4ccccc4)c4ccccc4)C(C)=C1C3(C)C)[C@]1(OC(C)=O)CO[C@@H]1C[C@@H]2O  AUC(0-inf) (human, plasma; intravenous infusion, 80 mg/m^2, day 5, with oral co-drug daily): 4.97 µg·h/mL
C[C@H]1CN(C(=O)CC#N)[C@]12CCN(c1ncnc3[nH]ccc13)C2  AUC(0-inf) (healthy human, plasma; oral, 3 mg single, mean): 0.0702 µg·h/mL
CC[C@H](Nc1ncnc2[nH]cnc12)c1oc2ccccc2c(=O)c1-c1cccc(F)c1  AUC(0-inf) (human patients, plasma; oral, 400 mg twice daily, with: romidepsin 12 mg/m2): 8.05 ± 7.28 µg·h/mL
Cn1cncc1[C@@](N)(c1ccc(Cl)cc1)c1ccc2c(c1)c(-c1cccc(Cl)c1)cc(=O)n2C  AUC(0-inf) (human patients; oral, 300 mg/m2, first dose, cycle 1, expanded cohort, median): 6.85 µg·h/mL
CC(C)n1c(/C=C/C(O)CC(O)CC(=O)O)c(-c2ccc(F)cc2)c2ccccc21 (centres unmarked)  AUC(0-inf) (human; oral, 20 mg, alone, control phase): 0.266 ± 0.086 µg·h/mL
CN[C@@H](C)C(=O)N[C@H]1CN(S(=O)(=O)c2cccc(S(=O)(=O)N3CC[C@H]4CC[C@@H](C(=O)NC(c5ccccc5)c5ccccc5)N4C(=O)[C@@H](NC(=O)[C@H](C)NC)C3)c2)CC[C@H]2CC[C@@H](C(=O)NC(c3ccccc3)c3ccccc3)N2C1=O  AUC(0-inf) (LC-MS/MS, noncompartmental; human, plasma; 45 mg, cycle 1 day 1): 1.08 ± 0.6 µg·h/mL
Cn1cncc1[C@@](N)(c1ccc(Cl)cc1)c1ccc2c(c1)c(-c1cccc(Cl)c1)cc(=O)n2C  AUC(0-inf) (healthy human subjects, plasma; oral, 50 mg, fasted): 0.442 µg·h/mL
CC(C)n1c(Nc2cccnc2)nc2cnc(Nc3ccc(N4CCN(C)CC4)cc3)nc21  AUC(0-inf) (LC-MS/MS; human, male, plasma; oral, 100 mg, day 11, with: itraconazole 200 mg): 1.15 µg·h/mL
CCN1CCN(Cc2ccc(Nc3ncc(F)c(-c4cc(F)c5nc(C)n(C(C)C)c5c4)n3)nc2)CC1  AUC(0-inf) (fasted healthy human subjects, plasma; oral, 150 mg, 3 × 50 mg tablet): 3.12 µg·h/mL
CC(C)(C)[C@@H]1NC(=O)O[C@@H]2CCC[C@H]2OC/C=C/C(F)(F)c2nc3ccccc3nc2O[C@@H]2C[C@@H](C(=O)N[C@]3(C(=O)NS(=O)(=O)C4(C)CC4)C[C@H]3C(F)F)N(C2)C1=O  AUC(0-inf) (healthy human subjects, plasma; oral, dose not given, single dose alone): 3.94 µg·h/mL
Cn1c(=O)oc2ccc(-c3ccc(C[C@@H](C#N)NC(=O)[C@@H]4CNCCCO4)cc3)cc21  AUC(0-inf) (human, moderate renal impairment, plasma; oral, 25 mg single dose, mean): 4.49 µg·h/mL
N#Cc1cccc(-c2ccc3ncc(-c4cc(F)cc(F)c4)c(N4CCC(N)CC4)c3c2)c1O  AUC(0-inf) (human, plasma; oral, 20 mg single dose, geometric mean): 2.7 µg·h/mL
COc1cc(C(=O)NC2CCN(C)CC2)c(F)cc1Nc1ncc(C(F)(F)F)c(Oc2cccc3c2C(=O)N(C)C3)n1  AUC(0-inf) (human, Taiwanese, plasma; oral, 200 mg single dose, geometric mean): 24.7 µM·h
O=C(O)CCC(=O)O.[2H]C([2H])([2H])Oc1cc(C)c2[nH]ccc2c1CN1CC[C@@H](C2CC2)C[C@H]1c1ccc(C(=O)O)cc1  AUC(0-inf) (LC-MS/MS, geometric mean; human, plasma; 50 mg, single dose, fasting): 32.9 µg·h/mL
Cc1cc(C)c(CNC(=O)c2cc(Cl)c3c(c2C)O[C@@](C)([C@H]2CC[C@H](N(C)C)CC2)O3)c(=O)[nH]1  AUC(0-inf) (measured: total radioactivity; human, plasma; oral, 200 mg): 25800 ng eq·h/mL
N[C@@H](CC(=O)N1CCn2c(nnc2C(F)(F)F)C1)Cc1cc(F)c(F)cc1F  AUC(0-inf) (male human, plasma; oral, 100 mg single dose): 3.48 ± 0.635 µg·h/mL
CNC(=O)c1c(C)oc2cc(Oc3ncnc4cc(OC)c(OC)cc34)ccc12  AUC(0-inf) (human, normal hepatic function (NCI), plasma; oral, dose not given, single dose): 5.3 µg·h/mL
Cc1nc2ccc(F)cc2n1-c1nc(N)c(F)c(Nc2ccc(C(F)(F)F)cc2)n1  AUC(0-inf) (human patients, plasma; oral, 300 mg twice weekly, cycles 1 and 2 pooled): 18 µg·h/mL
CN(C)C(=O)c1cc2cnc(Nc3ccc(N4CCNCC4)cn3)nc2n1C1CCCC1  AUC(0-inf) (human, normal renal function, plasma; oral, 400 mg, single dose, geometric mean): 4.1 µg·h/mL
C[C@H](O)c1cc(C(=O)N[C@@H](C)Cn2ccc(-c3ccc(C#N)c(Cl)c3)n2)n[nH]1  AUC(0-inf) (human, fasted, plasma; oral solution, 300 mg 14C-darolutamide, geometric mean): 38300 ng⋅h/mL
Nc1ccn([C@@H]2O[C@H](CO)[C@@H](O)C2(F)F)c(=O)n1  AUC(0-inf) (HPLC-UV; human, plasma; intravenous, 800 mg/m^2, mean, after paricalcitol): 17.8 µg·h/mL
CC(C)c1nc(N(C)S(C)(=O)=O)nc(-c2ccc(F)cc2)c1/C=C/[C@@H](O)C[C@@H](O)CC(=O)O  AUC(0-inf) (human, plasma; oral, 20 mg, day 2, mean, alone): 0.0578 µg·h/mL
CNC(=O)n1ccc2cc(Oc3ccnc(NC(=O)c4ccc(C5CCN(CCO)CC5)cc4)c3)c(OCCOC)cc21  AUC(0-inf) (healthy human, plasma; oral, 35 mg, geometric mean, alone): 0.108 µg·h/mL
Cl.[2H]C([2H])([2H])CC(=O)c1cnc(NC(=O)C2CC2)cc1Nc1cccc(-c2ncn(C([2H])([2H])[2H])n2)c1OC  AUC(0-inf) (human, fasted, plasma; oral, 25 mg, single dose, liquid formulation): 1.85 µg·h/mL
CCn1cc(C(=O)N2CCOCC2)c(=O)c2cc(NC3Cc4ccccc4C3)cnc21  AUC(0-inf) (human, fasted, plasma; oral, 600 mg single dose, tablet, arithmetic mean): 19.9 µg·h/mL
Cn1cc(-c2ccc(S(=O)(=O)[C@@H]3C[C@@H](C(=O)NC4(C#N)CC4)N(C(=O)C4(C(F)(F)F)CC4)C3)c(C(F)(F)F)c2)cn1  AUC(0-inf) (noncompartmental analysis; human, plasma; oral, 50 mg, day 1, with food, geometric mean): 6.15 µg·h/mL
N[C@@H]1c2cccnc2[C@H](OC(=O)N2CCC(n3c(=O)[nH]c4ncccc43)CC2)CC[C@H]1c1cccc(F)c1F  AUC(0-inf) (human, plasma; oral, 75 mg single dose, alone, geometric mean, itraconazole DDI study): 4.65 µg·h/mL
COC(=O)N[C@@H](C)CNc1nccc(-c2cn(C(C)C)nc2-c2cc(Cl)cc(NS(C)(=O)=O)c2F)n1  AUC(0-inf) (human, plasma; oral, 50 mg, with: posaconazole 400 mg twice daily; geometric mean): 5.81 µg·h/mL
NC[C@@]1(CC(=O)O)[C@@H]2CC[C@H]3C[C@@H]2[C@@H]1C3  AUC(0-inf) (human, severely renal impairment, plasma; dose not given, geometric least squares mean): 6.66 µg·h/mL
CC1(COc2ccc3c(c2)ncn3-c2ccc3cccc(N4CCC(N)CC4)c3n2)COC1  AUC(0-inf) (human patients, recurrent/progressive HGG or DIPG, serum; oral, 220 mg/m^2, day 1, median): 18.2 µM·h

Some of these lines once more:
CC[C@H](Nc1ncnc2[nH]cnc12)c1oc2ccccc2c(=O)c1-c1cccc(F)c1  AUC(0-inf) (human patients, plasma; oral, 400 mg twice daily, with: romidepsin 12 mg/m2): 8.05 ± 7.28 µg·h/mL
Cn1cncc1[C@@](N)(c1ccc(Cl)cc1)c1ccc2c(c1)c(-c1cccc(Cl)c1)cc(=O)n2C  AUC(0-inf) (human patients; oral, 300 mg/m2, first dose, cycle 1, expanded cohort, median): 6.85 µg·h/mL
CC(C)n1c(/C=C/C(O)CC(O)CC(=O)O)c(-c2ccc(F)cc2)c2ccccc21 (centres unmarked)  AUC(0-inf) (human; oral, 20 mg, alone, control phase): 0.266 ± 0.086 µg·h/mL
